Published values gathered from unrelated publications.
Compare with care: the assays were run in different laboratories.
Cell line: Caco-2

Compound | conditions | how to read | efflux ratio
N#Cc1ccc(-c2cc(=O)c3ccc4[nH]c(C(F)(F)F)nc4c3o2)cc1 | – | – | 3.6
C#Cc1c(F)ccc2cc(O)cc(-c3ncc4c(N5CC6CCC(C5)N6)nc(OC[C@@]56CCCN5C[C@H](F)C6)nc4c3F)c12 | – | baseline: without over with verapamil | 0.509
Cc1ccc(Nc2c(-c3ccc(F)cc3)nc3n2CCNC3)cc1 | – | baseline: A-B over B-A | 3.47
C[C@H]1O[C@@H](O[C@H]2[C@@H](O)C[C@H](O[C@H]3[C@@H](O)C[C@H](O[C@H]4CC[C@@]5(C)[C@H](CC[C@@H]6[C@@H]5C[C@@H](O)[C@]5(C)[C@@H](C7=CC(=O)OC7)CC[C@]65O)C4)O[C@@H]3C)O[C@@H]2C)C[C@H](O)[C@@H]1O | – | baseline: without over with verapamil | 62.8
CC(C)C[C@@H]1NC(=O)[C@H](C)NC(=O)[C@H](Cc2ccccc2)NCC2=CC=C(CN(C)C1=O)O2 | – | – | 24
Cc1ccc(Nc2c(-c3ccc(F)cc3)nc3n2CCNC3(C)C)cc1 | – | baseline: A-B over B-A | 2.24
N#Cc1ccc(C[C@H](Nc2nnc(-c3ccc(F)cc3)o2)C(=O)N2CCc3ccccc32)cc1 | 100 µM, 2 h | baseline: Papp B-A over A-B | 3.9
CC1(C)NC(=O)Cn2c1nc(-c1ccc(F)cc1)c2Nc1ccc(Cl)c(F)c1 | – | baseline: A-B over B-A | 0.96
O.Oc1cc2c(cc1O)[C@@H]1c3ccc(O)c(O)c3OC[C@]1(O)C2 | 100 µg/mL, 2 h | baseline: B-A over A-B | > 2
Cc1cc(C)c(CNC(=O)c2cc(Cl)c3c(c2C)O[C@@](C)([C@H]2CC[C@H](N(C)C)CC2)O3)c(=O)[nH]1 | 10 µM, added: verapamil 100 µM | – | 1.13
CC1(C)CCC2(CC1)N[C@@H](C(=O)N[C@@H]1CC[C@@H](C(N)=O)OC1)[C@H](c1ccnc(Cl)c1F)[C@]21C(=O)Nc2cc(Cl)ccc21 | 1 µM, 120 min, added: elacridar 5 µM | baseline: B-A over A-B | 0.68
CCOc1cc(-c2nncn2C)ccc1Nc1ncc2cc(C)nc(NCC(C)(C)C)c2n1 | 10 µM | – | 0.79

A few entries again:
Compound | conditions | how to read | efflux ratio
Cc1ccc(Nc2c(-c3ccc(F)cc3)nc3n2CCNC3(C)C)cc1 | – | baseline: A-B over B-A | 2.24
CC1(C)CCC2(CC1)N[C@@H](C(=O)N[C@@H]1CC[C@@H](C(N)=O)OC1)[C@H](c1ccnc(Cl)c1F)[C@]21C(=O)Nc2cc(Cl)ccc21 | 1 µM, 120 min, added: elacridar 5 µM | baseline: B-A over A-B | 0.68
